{"data": "Results pooled from the literature", "Nuclear receptor subfamily 2 group C member 2 ligand-binding domain": "Nuclear receptor subfamily 2 group C member 2, ligand-binding domain (Homo sapiens, UniProt P49116)", "note": "Protocols differ between the studies behind these lines. Several values in a cell are separate wells, animals, samples, runs or records. ± marks the error that the study gave.", "chain of UniProt Q16774 (whole entry, looked up)": "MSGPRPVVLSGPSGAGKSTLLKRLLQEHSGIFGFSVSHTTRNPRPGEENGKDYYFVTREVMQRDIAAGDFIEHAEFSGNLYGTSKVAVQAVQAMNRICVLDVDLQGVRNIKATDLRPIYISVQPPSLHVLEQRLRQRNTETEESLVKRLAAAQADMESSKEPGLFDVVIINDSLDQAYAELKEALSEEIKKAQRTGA", "chain of UniProt Q64663 (whole entry, unmodified, looked up)": "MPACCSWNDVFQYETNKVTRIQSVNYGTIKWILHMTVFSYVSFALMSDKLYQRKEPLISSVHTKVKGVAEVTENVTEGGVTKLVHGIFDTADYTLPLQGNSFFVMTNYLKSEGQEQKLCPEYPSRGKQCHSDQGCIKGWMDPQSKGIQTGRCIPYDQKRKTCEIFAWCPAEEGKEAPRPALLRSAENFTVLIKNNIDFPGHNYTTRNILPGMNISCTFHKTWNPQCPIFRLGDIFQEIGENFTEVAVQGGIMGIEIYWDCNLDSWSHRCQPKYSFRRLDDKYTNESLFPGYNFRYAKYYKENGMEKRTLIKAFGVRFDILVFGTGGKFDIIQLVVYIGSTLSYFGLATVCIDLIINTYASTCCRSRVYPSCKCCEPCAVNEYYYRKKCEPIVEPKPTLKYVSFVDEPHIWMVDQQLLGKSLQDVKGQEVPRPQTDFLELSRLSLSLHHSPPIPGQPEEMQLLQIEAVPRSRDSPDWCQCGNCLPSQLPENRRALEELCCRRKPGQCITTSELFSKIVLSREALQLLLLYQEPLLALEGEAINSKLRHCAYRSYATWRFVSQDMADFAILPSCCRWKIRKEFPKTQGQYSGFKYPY", "chain of UniProt P51575 (whole entry, unmodified, looked up)": "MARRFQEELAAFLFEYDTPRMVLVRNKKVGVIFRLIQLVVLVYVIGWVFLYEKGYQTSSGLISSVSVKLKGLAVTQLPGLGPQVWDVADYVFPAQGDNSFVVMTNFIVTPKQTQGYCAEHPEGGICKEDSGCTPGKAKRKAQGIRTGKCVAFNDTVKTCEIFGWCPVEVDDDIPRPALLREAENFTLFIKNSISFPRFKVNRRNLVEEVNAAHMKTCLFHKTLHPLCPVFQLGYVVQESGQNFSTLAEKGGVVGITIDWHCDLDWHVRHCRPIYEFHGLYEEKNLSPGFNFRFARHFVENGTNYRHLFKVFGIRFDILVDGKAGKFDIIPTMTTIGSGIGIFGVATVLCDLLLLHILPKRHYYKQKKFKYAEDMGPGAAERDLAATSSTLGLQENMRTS", "chain of UniProt O14980 (whole entry, looked up)": "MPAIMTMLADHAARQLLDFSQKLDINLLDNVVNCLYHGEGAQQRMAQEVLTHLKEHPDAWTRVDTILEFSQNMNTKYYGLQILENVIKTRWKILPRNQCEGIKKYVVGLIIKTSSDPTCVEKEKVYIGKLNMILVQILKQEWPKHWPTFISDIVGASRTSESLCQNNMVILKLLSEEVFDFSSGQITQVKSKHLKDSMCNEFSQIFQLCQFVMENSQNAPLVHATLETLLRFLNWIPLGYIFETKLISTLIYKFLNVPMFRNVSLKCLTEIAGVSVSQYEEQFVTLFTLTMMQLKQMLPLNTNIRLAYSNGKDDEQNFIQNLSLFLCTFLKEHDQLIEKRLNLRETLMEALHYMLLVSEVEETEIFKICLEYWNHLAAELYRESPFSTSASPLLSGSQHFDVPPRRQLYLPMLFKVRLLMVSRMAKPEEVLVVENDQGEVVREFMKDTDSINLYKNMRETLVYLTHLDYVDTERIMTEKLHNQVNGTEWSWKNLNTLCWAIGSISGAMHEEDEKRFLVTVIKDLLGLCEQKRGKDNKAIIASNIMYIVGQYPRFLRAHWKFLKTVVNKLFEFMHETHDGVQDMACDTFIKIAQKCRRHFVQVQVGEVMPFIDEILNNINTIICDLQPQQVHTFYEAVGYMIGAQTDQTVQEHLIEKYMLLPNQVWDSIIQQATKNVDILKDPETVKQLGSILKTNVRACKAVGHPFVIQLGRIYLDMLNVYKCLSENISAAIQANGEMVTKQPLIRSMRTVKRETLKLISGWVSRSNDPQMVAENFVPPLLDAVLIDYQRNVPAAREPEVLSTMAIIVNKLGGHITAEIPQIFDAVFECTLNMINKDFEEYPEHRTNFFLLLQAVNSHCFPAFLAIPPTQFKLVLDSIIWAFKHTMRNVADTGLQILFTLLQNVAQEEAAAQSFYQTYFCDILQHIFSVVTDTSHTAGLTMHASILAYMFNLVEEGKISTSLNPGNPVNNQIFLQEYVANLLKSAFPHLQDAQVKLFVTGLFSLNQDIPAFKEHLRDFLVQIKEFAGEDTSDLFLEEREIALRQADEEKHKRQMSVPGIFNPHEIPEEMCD", "chain of UniProt P49116 (whole entry, looked up)": "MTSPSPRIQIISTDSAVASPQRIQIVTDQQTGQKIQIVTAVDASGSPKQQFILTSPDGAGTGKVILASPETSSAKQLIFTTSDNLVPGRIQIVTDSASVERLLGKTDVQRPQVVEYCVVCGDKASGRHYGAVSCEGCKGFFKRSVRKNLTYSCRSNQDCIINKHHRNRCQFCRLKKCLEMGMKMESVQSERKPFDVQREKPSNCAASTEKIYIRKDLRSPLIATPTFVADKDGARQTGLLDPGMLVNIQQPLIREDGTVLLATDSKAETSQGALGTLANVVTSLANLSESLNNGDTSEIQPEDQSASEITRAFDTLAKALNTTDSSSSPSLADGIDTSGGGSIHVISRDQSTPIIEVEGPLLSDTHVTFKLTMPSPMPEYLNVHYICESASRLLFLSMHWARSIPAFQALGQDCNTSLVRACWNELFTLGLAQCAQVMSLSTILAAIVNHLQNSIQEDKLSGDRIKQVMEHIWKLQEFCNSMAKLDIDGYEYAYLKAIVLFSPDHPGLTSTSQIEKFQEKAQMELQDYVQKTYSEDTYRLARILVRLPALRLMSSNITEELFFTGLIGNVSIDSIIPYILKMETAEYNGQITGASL", "chain of UniProt P35560 (whole entry, looked up)": "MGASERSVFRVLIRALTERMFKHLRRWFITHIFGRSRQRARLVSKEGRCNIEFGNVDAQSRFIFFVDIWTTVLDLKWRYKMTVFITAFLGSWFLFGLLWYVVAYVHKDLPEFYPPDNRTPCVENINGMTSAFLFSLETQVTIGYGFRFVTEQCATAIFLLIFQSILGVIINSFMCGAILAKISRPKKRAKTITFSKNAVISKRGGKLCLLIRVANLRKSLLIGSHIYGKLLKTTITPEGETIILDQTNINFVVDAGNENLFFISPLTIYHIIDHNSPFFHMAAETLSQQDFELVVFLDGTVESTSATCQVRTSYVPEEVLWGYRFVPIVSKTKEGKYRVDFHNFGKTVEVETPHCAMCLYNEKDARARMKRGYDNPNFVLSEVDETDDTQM", "chain of UniProt Q99814 (whole entry, unmodified, looked up)": "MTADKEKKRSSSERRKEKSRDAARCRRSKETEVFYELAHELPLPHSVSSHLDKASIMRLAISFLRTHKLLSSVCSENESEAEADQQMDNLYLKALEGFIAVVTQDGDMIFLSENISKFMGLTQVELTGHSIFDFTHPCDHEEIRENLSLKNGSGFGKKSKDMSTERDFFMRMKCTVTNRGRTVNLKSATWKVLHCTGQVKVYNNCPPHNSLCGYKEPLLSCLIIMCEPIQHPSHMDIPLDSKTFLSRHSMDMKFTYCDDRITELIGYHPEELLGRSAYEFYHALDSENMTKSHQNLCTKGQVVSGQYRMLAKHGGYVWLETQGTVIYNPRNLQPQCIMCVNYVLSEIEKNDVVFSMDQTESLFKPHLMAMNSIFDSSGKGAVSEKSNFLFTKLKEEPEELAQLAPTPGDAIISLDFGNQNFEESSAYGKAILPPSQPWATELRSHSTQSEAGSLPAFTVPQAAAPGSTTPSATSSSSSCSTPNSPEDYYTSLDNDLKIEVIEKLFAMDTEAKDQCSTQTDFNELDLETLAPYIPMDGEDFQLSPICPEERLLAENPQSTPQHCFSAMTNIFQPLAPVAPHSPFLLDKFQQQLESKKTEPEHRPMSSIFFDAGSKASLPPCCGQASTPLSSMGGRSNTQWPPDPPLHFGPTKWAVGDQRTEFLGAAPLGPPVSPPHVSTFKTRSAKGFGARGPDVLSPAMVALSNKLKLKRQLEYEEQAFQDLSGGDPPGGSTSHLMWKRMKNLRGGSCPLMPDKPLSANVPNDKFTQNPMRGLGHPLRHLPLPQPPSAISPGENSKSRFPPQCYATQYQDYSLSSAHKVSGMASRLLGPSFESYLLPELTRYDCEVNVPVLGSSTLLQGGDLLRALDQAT", "chain of UniProt P51812 (whole entry, looked up)": "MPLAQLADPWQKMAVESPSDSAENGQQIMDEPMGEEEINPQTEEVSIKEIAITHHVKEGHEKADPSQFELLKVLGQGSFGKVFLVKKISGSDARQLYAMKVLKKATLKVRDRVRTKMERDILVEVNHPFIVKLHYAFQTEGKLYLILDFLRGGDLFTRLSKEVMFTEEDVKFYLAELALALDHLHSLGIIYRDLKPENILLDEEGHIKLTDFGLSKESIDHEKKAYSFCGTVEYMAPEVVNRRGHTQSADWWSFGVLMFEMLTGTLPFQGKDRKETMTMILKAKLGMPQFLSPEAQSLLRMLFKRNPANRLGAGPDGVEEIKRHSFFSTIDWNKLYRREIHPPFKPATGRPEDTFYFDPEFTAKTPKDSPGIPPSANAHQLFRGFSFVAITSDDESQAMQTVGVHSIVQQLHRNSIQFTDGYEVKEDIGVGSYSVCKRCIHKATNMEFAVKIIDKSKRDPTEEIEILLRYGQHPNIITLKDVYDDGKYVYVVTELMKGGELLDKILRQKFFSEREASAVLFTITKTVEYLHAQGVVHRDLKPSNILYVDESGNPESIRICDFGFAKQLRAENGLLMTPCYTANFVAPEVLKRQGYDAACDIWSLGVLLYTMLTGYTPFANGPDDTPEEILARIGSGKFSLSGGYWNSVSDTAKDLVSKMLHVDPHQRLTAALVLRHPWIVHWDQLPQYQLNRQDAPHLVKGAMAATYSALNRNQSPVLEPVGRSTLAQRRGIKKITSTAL", "chain of UniProt P63208 (whole entry, looked up)": "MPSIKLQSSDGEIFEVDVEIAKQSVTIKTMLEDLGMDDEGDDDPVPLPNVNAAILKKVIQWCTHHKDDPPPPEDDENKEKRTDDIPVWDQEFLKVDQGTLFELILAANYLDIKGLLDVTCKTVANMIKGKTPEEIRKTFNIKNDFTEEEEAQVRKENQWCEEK"}
{"Structure (SMILES)": "Nc1nc2c(ncn2[C@@H]2O[C@H](COP(=O)(O)O)[C@@H](O)[C@H]2O)c(=O)[nH]1", "target or system": "GUK1 (Homo sapiens, UniProt Q16774)", "assay": "enzyme activity, NADH-coupled", "conditions": "7.812 µM, with: KCl 50 mM", "endpoint": "reaction velocity", "result": "-0.0316 µM/s and 0.00628 µM/s and 0.0611 µM/s"}
{"Structure (SMILES)": "Nc1ncnc2c1ncn2[C@@H]1O[C@H](COP(=O)(O)CP(=O)(O)OP(=O)(O)O)[C@@H](O)[C@H]1O", "target or system": "P2X purinoceptor 1 (P2RX1, Homo sapiens, UniProt P51575, K140A)", "assay": "calcium influx", "conditions": "100 nM", "scale": "relative to: ionomycin response", "endpoint": "calcium influx", "result": "23.5% and 21.7% and 21% and 19.1%"}
{"Structure (SMILES)": "O=C(O)CCc1nc(-c2ccccc2)c(-c2ccccc2)o1", "target or system": "COS-7", "conditions": "100 µM, 24 h, 0.1% DMSO, unit not given", "scale": "relative to: control", "endpoint": "necrosis", "result": "0.7 ± 0.22"}
{"Structure (SMILES)": "O=C(/C=C\\n1cnc(-c2cc(C(F)(F)F)cc(C(F)(F)F)c2)n1)NNc1cnccn1", "target or system": "Exportin-1 (XPO1, Homo sapiens, UniProt O14980)", "assay": "nuclear export, high content imaging", "system": "HeLa Kyoto reporter", "conditions": "0.1 µM, 2 h", "endpoint": "cells with nuclear reporter", "result": "4.11% and 5.6%"}
{"Structure (SMILES)": "O=C(Nc1cnc2ccccc2c1)c1cc2[nH]ccc2cc1Cl", "target or system": "COS-7", "conditions": "1 µM, 24 h, 0.1% DMSO, unit not given", "scale": "relative to: vehicle control", "endpoint": "necrotic cells", "result": "1.03 ± 0.39"}
{"Structure (SMILES)": "O=[N+]([O-])c1cc(C(F)(F)F)ccc1NCc1ccsc1", "target or system": "Endothelial PAS domain-containing protein 1, PAS-B domain (EPAS1, Homo sapiens, UniProt Q99814, N288Q)", "assay": "binding, ITC, reverse mode", "endpoint": "ΔG", "result": "-8.25 ± 0.35 kcal/mol"}
{"Structure (SMILES)": "CCCN[C@H]1CCc2nc(N)sc2C1", "target or system": "Nuclear receptor subfamily 2 group C member 2 ligand-binding domain", "assay": "binding", "endpoint": "koff", "result": "5.95e-05 s⁻¹"}
{"Structure (SMILES)": "Clc1cccc(OC[C@H]2CN(CCN3CCc4ccccc43)CCO2)c1", "target or system": "D(1B) dopamine receptor (DRD5, Homo sapiens, UniProt P21918)", "assay": "radioligand binding", "conditions": "concentration not given, with: [3H]SCH23390", "endpoint": "inhibition", "result": "-4.8%"}
{"Structure (SMILES)": "COCCC(=O)N1CCC(Oc2ccccc2)C1 (stereo not drawn)", "target or system": "S-phase kinase-associated protein 1 (SKP1, Homo sapiens, UniProt P63208)", "assay": "binding, affinity selection mass spectrometry", "scale": "relative to: other proteins in batch", "endpoint": "fold enrichment", "result": 0.844}
{"Structure (SMILES)": "CC(C)C[C@@H]1NC(=O)[C@H](C)NC(=O)CNC(=O)[C@H](CC(N)=O)NC(=O)[C@@H]2CCCN2C(=O)[C@H](Cc2ccc(O)cc2)NC(=O)[C@H](CCCNC(=N)N)NC(=O)[C@H](Cc2ccccc2)NC(=O)[C@@H](NC(=O)[C@H](CCCCN)NC(=O)[C@@H]2CCCN2C(=O)[C@H](CO)NC(=O)[C@H](C)NC(=O)[C@@H](N)Cc2ccc(O)cc2)CSSC[C@@H](C(=O)N[C@H](C(N)=O)[C@@H](C)O)NC(=O)[C@H](C)NC1=O", "target or system": "Alpha-2-HS-glycoprotein, asialo (AHSG, Bos taurus, UniProt P12763)", "assay": "isothermal titration calorimetry", "conditions": "concentration not given, pH 7.0, 25 °C, with: asialofetuin", "endpoint": "binding stoichiometry", "result": 0.135}
{"Structure (SMILES)": "COc1cnc(NS(=O)(=O)c2ccc(N)cc2)nc1", "target or system": "Nuclear receptor subfamily 2 group C member 2 ligand-binding domain", "assay": "SPR imaging", "conditions": "600 nM", "endpoint": "koff", "result": "1.84e-07 s⁻¹"}
{"Structure (SMILES)": "O=C(O)c1cc(O)c2c(c1)C(=O)c1cccc(O[C@@H]3O[C@H](CO)[C@@H](O)[C@H](O)[C@H]3O)c1C2=O", "target or system": "HepaRG co-cultured with HK-2", "assay": "MTT", "conditions": "266.67 µM, 48 h", "scale": "relative to: untreated control", "endpoint": "cell viability", "result": "45.7 ± 5.41%"}
{"Structure (SMILES)": "CCc1cc(C(=O)NC)c2nccc(N3CCc4c(cc(Cn5ccnc5)cc4-c4cn(C)nc4C(F)(F)F)C3=O)c2c1", "system": "Sprague Dawley rats", "conditions": "oral, 50 mg/kg once daily, 7 days", "scale": "relative to: vehicle", "endpoint": "serum PLT change", "result": "7.35%"}
{"Structure (SMILES)": "CC(C)C[C@H](NC(=O)C[C@H](O)[C@H](CC(C)C)NC(=O)[C@H](Cc1c[nH]cn1)NC(=O)CNC(=O)[C@@H](NC(=O)[C@H](C)NC(=O)[C@H](Cc1c[nH]c2ccccc12)NC(=O)[C@H](CCC(N)=O)NC(=O)[C@@H](Cc1ccccc1)NC(=O)COCCOCCNC(=O)CCC(C(=O)O)N1CCN(CC(=O)O)CCN(CC(=O)O)CCN(CC(=O)O)CC1)C(C)C)C(N)=O (stereo partly drawn) [lutetium-177 labelled]", "system": "female BALB/c nu/nu mice, kidneys", "conditions": "intravenous, 100 pmol, 4 h, with: PA 300 µg", "endpoint": "tissue uptake", "result": "3.2 ± 0.9 %ID/g"}
{"Structure (SMILES)": "Nc1ncnc2c1ncn2[C@@H]1O[C@H](COP(=O)(O)OP(=O)(O)OP(=O)(O)O)[C@@H](O)[C@H]1O", "target or system": "P2X purinoceptor 7 (P2rx7, Rattus norvegicus, UniProt Q64663, Q143A)", "assay": "ion current, agonist, two-electrode voltage clamp", "system": "Xenopus laevis oocytes", "conditions": "19 µM", "scale": "relative to: highest concentration response", "endpoint": "normalized current", "result": "0.00971 and 0.0245 and 0.0366"}
{"Structure (SMILES)": "CC[C@@H]1[C@H](F)C(=O)N[C@@H]1COc1nccc2cc(C(N)=O)c(OC)cc12", "target or system": "Ribosomal protein S6 kinase alpha-3 (RPS6KA3, Homo sapiens, UniProt P51812)", "assay": "ATP probe binding, KiNativ profiling, item: domain 2 Lys2 site", "system": "THP-1 cell lysate", "conditions": "0.2 mM", "endpoint": "inhibition", "result": "-3.7%"}
{"Structure (SMILES)": "CC1(C)CC2(C)OC(=O)NC2(C)c2ccccc21 (stereo not drawn)", "target or system": "DDB1- and CUL4-associated factor 1 (DCAF1, Homo sapiens, UniProt Q9Y4B6)", "assay": "binding, affinity selection mass spectrometry", "scale": "relative to: other proteins in batch", "endpoint": "log fold enrichment", "result": -0.0886}
{"Structure (SMILES)": "O=C1OC(c2ccccc2)=N/C1=C\\c1ccccc1O", "target or system": "Pancreatic alpha-amylase (Homo sapiens, UniProt P04746)", "assay": "inhibitor, Lineweaver-Burk", "conditions": "300 ppm, with: starch substrate", "endpoint": "Vmax", "result": "0.051 mg/mL/min"}
{"Structure (SMILES)": "Nc1ncnc2c1ncn2[C@@H]1O[C@H](COP(=O)(O)OP(=O)(O)OP(=O)(O)O)[C@@H](O)[C@H]1O", "target or system": "ATP-sensitive inward rectifier potassium channel 1 (Rattus norvegicus, UniProt P35560)", "assay": "channel activity, inhibitor, inside-out patch clamp", "conditions": "with: ADP 0.2 mM", "endpoint": "concentration for full inhibition", "result": "1.8 to 2.2 mM"}
{"Structure (SMILES)": "Nc1ncnc2c1ncn2[C@@H]1O[C@H](COP(=O)(O)OP(=O)(O)O)[C@@H](O)[C@H]1O", "target or system": "PKM (Oryctolagus cuniculus, UniProt P11974)", "assay": "substrate", "conditions": "pH 8.0, 25 °C, MgCl2, KCl, with: PEP varied", "endpoint": "Kia", "result": "106 µM"}
{"Structure (SMILES)": "Cc1cc(O)c2c(c1)C(=O)c1cc(O)cc(O)c1C2=O", "target or system": "HepaRG co-cultured with HK-2", "assay": "MTT", "conditions": "66.67 µM, 48 h", "scale": "relative to: untreated control", "endpoint": "cell viability", "result": "30.6 ± 6.79%"}
{"note": "Repeated from above:"}
{"Structure (SMILES)": "O=C(O)c1cc(O)c2c(c1)C(=O)c1cccc(O[C@@H]3O[C@H](CO)[C@@H](O)[C@H](O)[C@H]3O)c1C2=O", "target or system": "HepaRG co-cultured with HK-2", "assay": "MTT", "conditions": "266.67 µM, 48 h", "scale": "relative to: untreated control", "endpoint": "cell viability", "result": "45.7 ± 5.41%"}
